Measurements of several laboratories.
Each line is one published result; not all experiments were run side by side. ± marks the error that the study gave.
GLP1R: Glucagon-like peptide 1 receptor (GLP1R, Homo sapiens, UniProt P43220)
FPR2: N-formyl peptide receptor 2 (FPR2, Homo sapiens, UniProt P25090)
GRM4: Metabotropic glutamate receptor 4 (GRM4, Homo sapiens, UniProt Q14833)
Lysophospholipase-like protein 1: Lysophospholipase-like protein 1 (Mus musculus, UniProt Q3UFF7)
LDHA: L-lactate dehydrogenase A chain (LDHA, Homo sapiens, UniProt P00338)

Amino acid sequences for entries named in this document (tags omitted). Residues count along the entry.
UniProt P43220, whole entry, looked up: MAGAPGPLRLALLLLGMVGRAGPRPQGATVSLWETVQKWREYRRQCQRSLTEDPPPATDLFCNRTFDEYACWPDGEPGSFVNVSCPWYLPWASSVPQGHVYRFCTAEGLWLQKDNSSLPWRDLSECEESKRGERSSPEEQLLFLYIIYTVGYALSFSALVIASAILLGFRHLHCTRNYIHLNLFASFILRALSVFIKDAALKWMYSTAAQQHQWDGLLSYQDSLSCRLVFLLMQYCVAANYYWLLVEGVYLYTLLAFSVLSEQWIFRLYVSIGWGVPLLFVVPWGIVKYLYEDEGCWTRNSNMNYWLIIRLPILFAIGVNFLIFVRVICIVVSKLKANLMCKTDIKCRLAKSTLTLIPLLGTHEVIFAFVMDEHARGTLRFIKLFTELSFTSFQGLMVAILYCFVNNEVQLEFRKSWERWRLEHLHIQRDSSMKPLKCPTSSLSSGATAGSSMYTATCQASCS
UniProt P43220, 24-463 limits assumed: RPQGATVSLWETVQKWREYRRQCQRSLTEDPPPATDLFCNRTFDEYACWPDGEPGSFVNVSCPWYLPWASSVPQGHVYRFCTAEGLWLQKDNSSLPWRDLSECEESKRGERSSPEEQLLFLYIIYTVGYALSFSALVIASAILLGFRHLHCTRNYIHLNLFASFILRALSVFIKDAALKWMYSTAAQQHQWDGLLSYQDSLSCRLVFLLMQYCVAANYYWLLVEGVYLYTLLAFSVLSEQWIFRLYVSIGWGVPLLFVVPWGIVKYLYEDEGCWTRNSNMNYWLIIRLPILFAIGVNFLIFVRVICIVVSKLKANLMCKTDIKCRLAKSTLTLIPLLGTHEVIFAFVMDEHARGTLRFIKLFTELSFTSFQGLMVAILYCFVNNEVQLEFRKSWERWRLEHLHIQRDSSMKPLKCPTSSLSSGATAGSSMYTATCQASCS
UniProt P25090, whole entry: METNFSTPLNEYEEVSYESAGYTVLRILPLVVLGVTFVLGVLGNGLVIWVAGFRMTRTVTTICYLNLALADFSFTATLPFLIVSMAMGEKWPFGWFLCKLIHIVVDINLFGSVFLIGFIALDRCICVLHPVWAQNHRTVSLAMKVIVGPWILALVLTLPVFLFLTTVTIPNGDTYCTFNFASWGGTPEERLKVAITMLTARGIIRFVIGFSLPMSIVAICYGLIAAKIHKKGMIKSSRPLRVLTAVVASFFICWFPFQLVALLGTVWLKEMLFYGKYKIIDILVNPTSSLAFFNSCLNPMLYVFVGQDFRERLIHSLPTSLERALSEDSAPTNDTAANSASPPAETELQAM
UniProt Q14833, 33-912 limits assumed: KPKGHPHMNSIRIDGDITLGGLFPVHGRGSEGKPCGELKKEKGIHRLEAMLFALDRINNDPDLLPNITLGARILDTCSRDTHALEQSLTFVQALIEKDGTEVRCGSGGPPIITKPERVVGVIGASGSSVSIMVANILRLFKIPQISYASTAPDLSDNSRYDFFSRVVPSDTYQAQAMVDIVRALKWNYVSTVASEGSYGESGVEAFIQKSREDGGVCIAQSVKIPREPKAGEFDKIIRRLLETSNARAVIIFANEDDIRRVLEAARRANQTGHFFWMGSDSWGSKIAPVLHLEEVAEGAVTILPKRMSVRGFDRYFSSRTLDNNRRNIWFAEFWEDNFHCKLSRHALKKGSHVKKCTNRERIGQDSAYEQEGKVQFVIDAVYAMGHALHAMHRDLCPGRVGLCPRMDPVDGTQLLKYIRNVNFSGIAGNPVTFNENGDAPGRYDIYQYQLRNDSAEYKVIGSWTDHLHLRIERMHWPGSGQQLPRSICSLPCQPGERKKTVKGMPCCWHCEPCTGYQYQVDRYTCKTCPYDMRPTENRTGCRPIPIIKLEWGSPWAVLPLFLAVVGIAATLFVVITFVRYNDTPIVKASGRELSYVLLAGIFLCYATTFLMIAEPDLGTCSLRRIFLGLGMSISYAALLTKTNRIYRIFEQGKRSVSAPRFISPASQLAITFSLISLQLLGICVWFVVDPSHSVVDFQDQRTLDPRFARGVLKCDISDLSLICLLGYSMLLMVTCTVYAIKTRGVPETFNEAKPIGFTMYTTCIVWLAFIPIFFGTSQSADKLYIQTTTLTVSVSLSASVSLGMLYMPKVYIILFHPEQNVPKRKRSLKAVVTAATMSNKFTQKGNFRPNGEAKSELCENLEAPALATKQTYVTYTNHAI
UniProt Q3UFF7, whole entry: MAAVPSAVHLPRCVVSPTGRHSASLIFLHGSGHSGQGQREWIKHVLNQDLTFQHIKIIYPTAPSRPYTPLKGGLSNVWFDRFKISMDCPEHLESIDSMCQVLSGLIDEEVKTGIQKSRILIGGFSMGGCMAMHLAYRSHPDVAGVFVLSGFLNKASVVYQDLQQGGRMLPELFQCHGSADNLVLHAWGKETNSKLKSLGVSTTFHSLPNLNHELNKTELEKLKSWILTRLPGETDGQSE
UniProt Q01959, whole entry: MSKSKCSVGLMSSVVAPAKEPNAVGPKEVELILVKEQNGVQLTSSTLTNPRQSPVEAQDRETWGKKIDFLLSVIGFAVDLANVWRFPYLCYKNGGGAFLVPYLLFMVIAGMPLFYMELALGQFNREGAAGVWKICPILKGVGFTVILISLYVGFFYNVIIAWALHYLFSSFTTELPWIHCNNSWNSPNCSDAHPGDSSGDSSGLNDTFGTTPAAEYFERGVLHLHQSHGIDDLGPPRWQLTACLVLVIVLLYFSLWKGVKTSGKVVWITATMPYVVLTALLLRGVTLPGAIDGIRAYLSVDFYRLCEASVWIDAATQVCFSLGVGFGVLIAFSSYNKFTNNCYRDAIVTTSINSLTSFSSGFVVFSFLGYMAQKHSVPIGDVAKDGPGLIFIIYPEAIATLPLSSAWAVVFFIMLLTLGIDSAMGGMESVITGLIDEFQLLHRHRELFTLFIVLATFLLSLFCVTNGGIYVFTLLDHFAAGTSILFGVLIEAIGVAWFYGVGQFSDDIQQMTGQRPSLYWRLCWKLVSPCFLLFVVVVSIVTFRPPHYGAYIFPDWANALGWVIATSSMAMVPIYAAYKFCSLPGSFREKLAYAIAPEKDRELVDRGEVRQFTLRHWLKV
UniProt P62508, whole entry: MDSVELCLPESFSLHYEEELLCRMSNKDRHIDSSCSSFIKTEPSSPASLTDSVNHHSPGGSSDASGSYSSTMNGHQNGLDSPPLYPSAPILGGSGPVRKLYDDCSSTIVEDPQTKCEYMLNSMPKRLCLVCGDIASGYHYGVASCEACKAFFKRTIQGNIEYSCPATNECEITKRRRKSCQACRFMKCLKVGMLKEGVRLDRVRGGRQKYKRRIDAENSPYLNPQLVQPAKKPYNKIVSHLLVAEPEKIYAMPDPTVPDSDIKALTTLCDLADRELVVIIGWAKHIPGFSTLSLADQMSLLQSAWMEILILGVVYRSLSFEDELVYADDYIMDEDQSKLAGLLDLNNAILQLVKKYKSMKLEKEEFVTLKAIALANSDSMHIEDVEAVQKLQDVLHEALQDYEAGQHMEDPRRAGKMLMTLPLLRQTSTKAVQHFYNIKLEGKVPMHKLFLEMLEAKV
UniProt Q9JJJ7, whole entry: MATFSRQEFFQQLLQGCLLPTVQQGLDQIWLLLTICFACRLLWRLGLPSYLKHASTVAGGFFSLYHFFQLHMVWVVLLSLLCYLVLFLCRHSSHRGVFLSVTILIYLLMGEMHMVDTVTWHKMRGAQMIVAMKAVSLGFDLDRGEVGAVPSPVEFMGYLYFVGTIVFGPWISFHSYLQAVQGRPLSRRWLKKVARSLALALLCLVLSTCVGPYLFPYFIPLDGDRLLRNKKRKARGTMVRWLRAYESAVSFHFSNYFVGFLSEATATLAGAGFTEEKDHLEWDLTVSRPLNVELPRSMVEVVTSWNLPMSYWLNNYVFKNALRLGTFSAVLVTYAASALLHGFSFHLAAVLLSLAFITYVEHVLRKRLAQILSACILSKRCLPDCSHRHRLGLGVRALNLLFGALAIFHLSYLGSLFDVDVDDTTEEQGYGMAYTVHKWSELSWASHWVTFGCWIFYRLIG
UniProt Q01727, whole entry: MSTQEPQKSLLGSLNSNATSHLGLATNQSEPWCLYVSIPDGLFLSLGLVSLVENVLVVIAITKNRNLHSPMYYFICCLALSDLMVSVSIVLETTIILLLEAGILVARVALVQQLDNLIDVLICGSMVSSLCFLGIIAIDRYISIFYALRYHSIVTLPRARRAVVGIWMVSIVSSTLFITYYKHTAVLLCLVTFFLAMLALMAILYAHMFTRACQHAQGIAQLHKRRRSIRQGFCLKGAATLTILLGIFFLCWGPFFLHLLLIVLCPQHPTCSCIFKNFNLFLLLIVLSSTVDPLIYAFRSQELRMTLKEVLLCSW
UniProt Q02750, whole entry: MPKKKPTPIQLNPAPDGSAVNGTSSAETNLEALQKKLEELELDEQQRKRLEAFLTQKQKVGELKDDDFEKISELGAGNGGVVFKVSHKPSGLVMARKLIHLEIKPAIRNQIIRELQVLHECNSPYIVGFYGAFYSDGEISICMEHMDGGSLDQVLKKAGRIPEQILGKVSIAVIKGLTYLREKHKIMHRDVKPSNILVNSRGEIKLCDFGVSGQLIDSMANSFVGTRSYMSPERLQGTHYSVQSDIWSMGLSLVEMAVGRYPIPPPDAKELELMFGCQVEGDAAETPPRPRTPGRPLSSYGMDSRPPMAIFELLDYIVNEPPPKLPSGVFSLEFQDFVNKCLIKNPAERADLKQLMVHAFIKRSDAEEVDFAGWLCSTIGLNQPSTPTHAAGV
UniProt Q99685, whole entry: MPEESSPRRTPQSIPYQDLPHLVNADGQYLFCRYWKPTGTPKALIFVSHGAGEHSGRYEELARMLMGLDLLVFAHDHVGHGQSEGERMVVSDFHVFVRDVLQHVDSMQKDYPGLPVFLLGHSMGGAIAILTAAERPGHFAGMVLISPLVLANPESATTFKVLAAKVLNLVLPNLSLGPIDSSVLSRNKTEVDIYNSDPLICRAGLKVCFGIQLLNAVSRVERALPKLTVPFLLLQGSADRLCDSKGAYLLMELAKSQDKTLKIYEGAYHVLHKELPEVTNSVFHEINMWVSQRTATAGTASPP
UniProt Q14416, 19-872 limits assumed: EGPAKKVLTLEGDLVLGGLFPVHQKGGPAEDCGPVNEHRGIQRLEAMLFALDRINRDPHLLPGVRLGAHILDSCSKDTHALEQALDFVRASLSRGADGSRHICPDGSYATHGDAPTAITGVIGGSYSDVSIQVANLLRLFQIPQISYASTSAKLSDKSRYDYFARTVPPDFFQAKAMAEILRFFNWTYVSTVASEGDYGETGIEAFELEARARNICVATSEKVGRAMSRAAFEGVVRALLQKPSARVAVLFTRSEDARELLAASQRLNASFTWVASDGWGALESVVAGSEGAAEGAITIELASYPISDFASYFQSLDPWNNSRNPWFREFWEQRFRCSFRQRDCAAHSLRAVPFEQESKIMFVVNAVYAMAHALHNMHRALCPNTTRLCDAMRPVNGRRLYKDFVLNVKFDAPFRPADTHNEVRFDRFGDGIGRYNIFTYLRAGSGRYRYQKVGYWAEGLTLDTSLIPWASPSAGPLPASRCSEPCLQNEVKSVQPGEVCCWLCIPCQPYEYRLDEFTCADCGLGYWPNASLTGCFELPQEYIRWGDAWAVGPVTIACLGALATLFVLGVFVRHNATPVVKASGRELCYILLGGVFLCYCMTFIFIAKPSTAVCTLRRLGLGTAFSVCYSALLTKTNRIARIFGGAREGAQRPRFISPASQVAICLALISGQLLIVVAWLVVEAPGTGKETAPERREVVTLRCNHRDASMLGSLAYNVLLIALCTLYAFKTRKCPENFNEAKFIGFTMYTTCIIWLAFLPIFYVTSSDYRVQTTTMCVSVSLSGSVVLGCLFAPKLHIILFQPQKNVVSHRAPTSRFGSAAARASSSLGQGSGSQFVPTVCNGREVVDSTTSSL
UniProt Q923Y9, whole entry: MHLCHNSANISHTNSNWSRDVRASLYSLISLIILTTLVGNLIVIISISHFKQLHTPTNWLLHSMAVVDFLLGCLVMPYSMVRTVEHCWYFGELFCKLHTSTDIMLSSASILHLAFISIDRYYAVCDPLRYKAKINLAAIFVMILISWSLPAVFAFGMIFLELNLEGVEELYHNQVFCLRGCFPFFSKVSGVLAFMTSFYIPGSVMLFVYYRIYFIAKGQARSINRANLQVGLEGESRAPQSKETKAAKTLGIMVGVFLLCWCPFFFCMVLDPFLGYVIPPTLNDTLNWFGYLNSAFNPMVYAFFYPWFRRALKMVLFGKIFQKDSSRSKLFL

| Structure (SMILES) | target | test | test system | setting | EC50 [µM] |
| --- | --- | --- | --- | --- | --- |
| CCCCOC(=O)[C@@]12C[C@@H]1[C@@H](n1cnc3c(NC)nc(C#Cc4ccc(Cl)s4)nc31)[C@H](O)[C@@H]2O | Sodium-dependent dopamine transporter (SLC6A3, Homo sapiens, UniProt Q01959) |  |  |  | 0.91 ± 0.0958 |
| CC(C)(Cn1cc(-c2ccc(B(O)O)cc2)nn1)c1c[nH]c2ccccc12 | GLP1R | cAMP accumulation, positive allosteric modulator, HTRF | CHO-K1 expressing GLP1R | purified compound, with: GLP-1(9-36) at EC20 | 1.05 ± 0.324 |
| Nc1ccc([N+](=O)[O-])cc1-c1nc2ccccc2[nH]c1=O | Cystic fibrosis transmembrane conductance regulator (CFTR, Homo sapiens, UniProt P13569) | iodide influx, activator, YFP halide sensor | FRT | approximate, with: forskolin 125 nM | > 25 |
| O=C(NN=Cc1ccccc1)c1ccc(Cl)cc1 | Estrogen-related receptor gamma (ESRRG, Homo sapiens, UniProt P62508) | reporter gene, agonist, ERRE luciferase reporter | HEK293 transfected |  | 0.79 |
| O=C(Nc1ccc([N+](=O)[O-])cc1)N[C@@H](Cc1c[nH]c2ccccc12)C(=O)NCC1(c2ccccc2)CCCCC1 | FPR2 | Ca2+ mobilization, agonist | HL-60 transfected with FPR2 |  | 0.7 ± 0.22 |
| COc1ccc(NC(=O)CN2CCCN(S(=O)(=O)c3cc(C)c(Cl)cc3F)CC2)c(OC)c1 | GRM4 | calcium mobilization, positive allosteric modulator | CHO cells with Gqi5 | with: glutamate EC20 | 2.7 ± 0.2 |
| Nc1nc(NCCc2ccc(Cl)cc2)nn1S(=O)(=O)c1ccc2ncsc2c1 | Lysophospholipase-like protein 1 | enzyme activity, activator, gel-based ABPP, FP-rhodamine | purified protein |  | 2.1 |
| Cc1[nH]c2cc(Cl)cc(Cl)c2c1CCn1cc(CCCC#N)nn1 | GLP1R | cAMP accumulation, positive allosteric modulator, HTRF | CHO-K1 expressing GLP1R | crude reaction product, with: GLP-1(9-36) at EC20 | 0.743 |
| O=C(Cn1nnc(-c2cccnc2)c1-c1ccccc1)Nc1ccc(-c2ccccc2)cn1 | Protein-serine O-palmitoleoyltransferase porcupine (Mus musculus, UniProt Q9JJJ7) | Wnt signalling reporter, inhibitor | L-Wnt-STF |  | 0.0006 |
| NCCCCNC(=O)[C@H](Cc1ccc2ccccc2c1)NC(=O)N1CCc2ccccc2C1 | Melanocyte-stimulating hormone receptor (Mc1r, Mus musculus, UniProt Q01727) | reporter gene, agonist, β-galactosidase reporter | HEK293 stably expressing Mc1r |  | > 100 |
| CC(C)(Cn1cc(CN[C@@H]2CCc3ccccc32)nn1)c1c[nH]c2ccccc12 | GLP1R | cAMP accumulation, positive allosteric modulator, HTRF | CHO-K1 expressing GLP1R | crude reaction product, with: GLP-1(9-36) at EC20 | 1.05 |
| COc1ccc(NC(=O)CN2CCCN(S(=O)(=O)c3cccnc3)CC2)c(OC)c1 | GRM4 | calcium mobilization, positive allosteric modulator | CHO cells with Gqi5 | with: glutamate EC20 | > 10 |
| Nc1nc(NCc2ccc(Cl)cc2)nn1S(=O)(=O)c1ccc2ncsc2c1 | Lysophospholipase-like protein 1 | enzyme activity, activator, gel-based ABPP, FP-rhodamine | purified protein |  | > 20 |
| COCC#Cc1cc(-c2nn(-c3nc(C(=O)O)cs3)c(CC3CC3)c2Cc2ccc(S(N)(=O)=O)c(F)c2)ccc1F | LDHA | thermal stabilisation, CETSA | HEK293 | 3.5 min, 71 °C | 0.06 |
| COc1ccccc1-c1cc(C(F)(F)F)nc(S(C)(=O)=O)n1 | GLP1R | cAMP accumulation, agonist | HEK293T overexpressing target | no peptide ligand | 11 ± 6.1 |
| Cc1c(=O)n(C)c(Nc2ccc(I)cc2F)c2c(=O)n(C3CC3)c(=O)n(-c3cccc(NC(=O)CCOCCOCCNC(=O)CCC4=[N+]5C(=Cc6ccc(-c7ccc[nH]7)n6[B-]5(F)F)C=C4)c3)c12 | Dual specificity mitogen-activated protein kinase kinase 1, with BRAF (MAP2K1, Homo sapiens, UniProt Q02750) | binding, NanoBRET | HEK-293T | MEK1-NanoLuc with BRAF | 0.178 ± 0.033 |
| COc1ccc(NC(=O)CN2CCCN(S(=O)(=O)c3cc(C)ccc3C)CC2)c(OC)c1 | GRM4 | calcium mobilization, positive allosteric modulator | CHO cells with Gqi5 | with: glutamate EC20 | 2.7 ± 0.6 |
| CCCCCCCC(=O)OCC(COP(=O)(O)OC1C(O)C(OP(=O)(O)O)C(OP(=O)(O)O)C(OP(=O)(O)O)C1O)OC(=O)CCCCCCC (centres unmarked) | CNGA3/CNGB3 (Homo sapiens, UniProt Q16281+Q9NQW8) | increase in cGMP K1/2, inside-out patch clamp |  | CNGA3/CNGB3 heteromer | 0.58 |
| CC(C)(Cn1cc(-c2ccc(CO)cc2)nn1)c1c[nH]c2ccccc12 | GLP1R | cAMP accumulation, positive allosteric modulator, HTRF | CHO-K1 expressing GLP1R | crude reaction product, with: GLP-1(9-36) at EC20 | 0.97 |
| CCC[C@@H]1CC(=O)C2=C(C1)NC(C)=C(C#N)[C@H]2c1cc(Br)c(OCc2cccc(C(=O)NCCOCCOCCOCCN=[N+]=[N-])c2)c(OCC)c1 | Follicle-stimulating hormone receptor (FSHR, Homo sapiens, UniProt P23945) | reporter gene, agonist, CRE-luciferase | CHO expressing human FSHR |  | 0.006 |
| O=C(Nc1ccccc1F)C12CC1/C(=N\O)c1ccccc1O2 (centres unmarked) | GRM4 | calcium mobilization, positive allosteric modulator | CHO hmGluR4/Gqi5 | with: glutamate EC20 | > 5 |
| COc1ccc(C2=[N+]3C(=Cc4c(C)c(CCC(=O)NCc5cn(CCOc6ccc(C(c7ccc(Cl)cc7)N7CCN(C(=O)OC(C(F)(F)F)C(F)(F)F)CC7)cc6)nn5)c(C)n4[B-]3(F)F)C=C2)cc1 (centres unmarked) | Monoglyceride lipase (MGLL, Homo sapiens, UniProt Q99685) | target engagement, gel-based ABPP | U-87 MG | 1 h, 37 °C | ~0.01 |
| Nc1nc(SCc2ccc(Cl)c(Cl)c2)nn1S(=O)(=O)c1ccc2c(c1)CCO2 | Lysophospholipase-like protein 1 | enzyme activity, activator, gel-based ABPP, FP-rhodamine | purified protein |  | 0.77 |
| CSc1cc(NC(=O)c2ccccn2)ccc1Cl | Metabotropic glutamate receptor 2 (GRM2, Homo sapiens, UniProt Q14416) | agonist |  |  | > 30 |
| COc1cccc(Cc2cc(C)nn(C(C(=O)Nc3ccc(Br)cc3)c3ccccc3)c2=O)c1 (racemic) | FPR2 | calcium mobilization, agonist | HL-60 transfected with FPR2 |  | 1.8 |
| COc1ccc(NC(=O)CN2CCCN(S(=O)(=O)c3ccc(C)c(C)c3)CC2)c(OC)c1 | GRM4 | calcium mobilization, positive allosteric modulator | CHO cells with Gqi5 | with: glutamate EC20 | 3.2 ± 0.2 |
| Cc1nc(-c2ccc(OCC(C)C)c(C#N)c2)sc1C(N)=O | Metabotropic glutamate receptor 4 (Grm4, Rattus norvegicus, UniProt P31423) | thallium flux | HEK293 GIRK |  | 2.1 |
| NCC(c1ccc(O)cc1)c1ccc(O)cc1 | Trace amine-associated receptor 1 (Rattus norvegicus, UniProt Q923Y9) | cAMP production, agonist | HEK293 |  | 0.115 ± 0.012 |
| NS(=O)(=O)c1ccc(Cc2c(-c3cccc(-c4ccccc4)c3)nn(-c3nc(C(=O)O)cs3)c2C2CC2)c(F)c1 | LDHA | thermal stabilisation, CETSA | HEK293 | 3.5 min, 71 °C | 1.5 |

Repeated from above:
| Structure (SMILES) | target | test | test system | setting | EC50 [µM] |
| --- | --- | --- | --- | --- | --- |
| CC(C)(Cn1cc(CN[C@@H]2CCc3ccccc32)nn1)c1c[nH]c2ccccc12 | GLP1R | cAMP accumulation, positive allosteric modulator, HTRF | CHO-K1 expressing GLP1R | crude reaction product, with: GLP-1(9-36) at EC20 | 1.05 |
| COc1ccc(NC(=O)CN2CCCN(S(=O)(=O)c3cccnc3)CC2)c(OC)c1 | GRM4 | calcium mobilization, positive allosteric modulator | CHO cells with Gqi5 | with: glutamate EC20 | > 10 |
| Nc1nc(NCc2ccc(Cl)cc2)nn1S(=O)(=O)c1ccc2ncsc2c1 | Lysophospholipase-like protein 1 | enzyme activity, activator, gel-based ABPP, FP-rhodamine | purified protein |  | > 20 |
| COCC#Cc1cc(-c2nn(-c3nc(C(=O)O)cs3)c(CC3CC3)c2Cc2ccc(S(N)(=O)=O)c(F)c2)ccc1F | LDHA | thermal stabilisation, CETSA | HEK293 | 3.5 min, 71 °C | 0.06 |
